# Published values pooled from the literature.
# Every numbered part comes from another study and shows a few of its results, in no order.

# Sample 1
# Target: Interferon regulatory factor 3, full length, phosphomimetic (IRF3, Homo sapiens, UniProt Q14653, residues 1-427, S386D/S396D/S398D/S402D/T404D/S405D)
# Method: protein-binding microarray
# Molecule type: double-stranded DNA, one strand shown
# Sample: in vitro
# Tested at: 2540 nM top
# Setting: 60-bp whole probe
# Together with: salmon DNA 0.4 mg/ml
# Relative to: random background probes
# Direction: higher = stronger binding
# All sequences stand within: GCCTAGCAC … GTCTTGATTCGCTTGACGCTGCTG
# Residues (chain): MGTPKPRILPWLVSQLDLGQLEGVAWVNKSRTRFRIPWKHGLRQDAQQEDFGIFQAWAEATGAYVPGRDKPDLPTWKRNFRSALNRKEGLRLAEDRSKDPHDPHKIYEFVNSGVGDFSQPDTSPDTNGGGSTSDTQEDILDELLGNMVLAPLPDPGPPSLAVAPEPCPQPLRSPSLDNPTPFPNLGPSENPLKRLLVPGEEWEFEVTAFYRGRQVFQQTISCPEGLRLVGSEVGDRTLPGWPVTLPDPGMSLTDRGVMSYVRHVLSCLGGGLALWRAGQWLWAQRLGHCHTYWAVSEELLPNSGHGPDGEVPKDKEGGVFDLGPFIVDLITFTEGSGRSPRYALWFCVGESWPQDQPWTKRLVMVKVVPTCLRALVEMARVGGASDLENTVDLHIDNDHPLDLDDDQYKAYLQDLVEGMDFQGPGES
Oligonucleotide,fitted relative affinity [z-score]
TCAGTTTTGAGCTCTGTCTGGGTGCTA,1.06
TTAGGTATCGGGGCTGGGTTAGTGCTA,-0.00253
GACGTACTGGGTTTCGGGACGTGCTAG,1.36
TCACAGATGTTTTTCATACTGTGCTAG,0.376
TTAGATATCGGCTATCGATTAGTGCTA,-0.333
AACGGTATCGACTTTCGGGACGTGCTA,1.37

# Sample 2
# Target: Histone acetyltransferase KAT6A, winged helix 1, GST fusion (KAT6A, Homo sapiens, UniProt Q92794, residues 1-85)
# Method: protein binding microarray
# Molecule type: double-stranded DNA, one strand shown
# Sample: in vitro
# Tested at: not given
# Setting: 8-mer, flanks averaged, mean of 2 arrays, mostly near background
# Relative to: not given
# Direction: higher = stronger binding
# Construct (chain): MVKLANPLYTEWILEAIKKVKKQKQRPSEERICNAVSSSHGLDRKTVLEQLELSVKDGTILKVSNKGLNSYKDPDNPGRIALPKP
Oligonucleotide,E-score
CATGTAGG,-0.14
GGATTTAA,0.101
GAAAACGC,0.121
CCATGTGC,0.0502
CGAGTAAC,-0.0471
CGTGATAC,0.0083

# Sample 3
# Target: Fragile X messenger ribonucleoprotein 1, C-terminal low-complexity region (Fmr1, Mus musculus, UniProt P35922)
# Method: RNA Bind-n-Seq
# Molecule type: RNA
# Sample: in vitro
# Tested at: 200 nM
# Setting: whole 134-nt RNA, ends assumed
# Together with: 150 mM LiCl
# Relative to: input library
# Direction: higher = stronger binding
# Library: 7-deaza-guanosine replaces G
Oligonucleotide,log2 enrichment
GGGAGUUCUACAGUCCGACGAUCGCAGGAAGUAAAAACACAUGGAAAUGCUUCGGAUAGUGGCAGGGGUGGGGGUUGCUAAGGAAAGGGUGGGAUGGGAGUGGGUAAAGAGUUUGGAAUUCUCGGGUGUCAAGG,1.71
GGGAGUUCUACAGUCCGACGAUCCUGUGCUACACAUCGUAUGUACCGAAUCGGGGAAAAAAAGGGGAAAAAAAGGGGAAAGGGGAAAGUAUUAUGUUACGCCGUUCGGAUCUGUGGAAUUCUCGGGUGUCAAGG,0.948
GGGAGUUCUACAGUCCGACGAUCCCUGUGCUACACAUCGUAUGUACCGAAUCGGGAAAAAAGGGGAAAAAAGGAAAAAAGGGGAAAGUAUUAUGUUACGCCGUUCGGAUCUGCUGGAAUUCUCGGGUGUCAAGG,0.0329
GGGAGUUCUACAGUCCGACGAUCUCCUGUGCUACACAUCGUAUGUACCGAAUCAAAUUUUUAAAUUUUUAAACCCCCCCAAAAAAGUAUUAUGUUACGCCGUUCGGAUCUGCAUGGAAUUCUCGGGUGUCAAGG,2.08
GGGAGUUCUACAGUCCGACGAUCAGUUACGGUAGCAGUUCUCAGAGCAGCAGCUAUGGGCAGCCCCAGAGUGGGAGCUACAGCCAGCAGCCUAGCUAUGGUGGACAGCAGCAAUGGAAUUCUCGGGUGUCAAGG,-2.47
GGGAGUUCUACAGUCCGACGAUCUGGCAGGUGGAUUUUGUUUAUUUUUUUAGCUCAUUUCCAGGGGUGGGAAUUUUUUUUUAAUAUGUGUCAUGAAUAAAGUUGUUUUUGAAAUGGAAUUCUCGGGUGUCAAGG,0.402
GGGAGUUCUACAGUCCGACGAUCAGUCCUGUGCUACACAUCGUAUGUACCGAAUCGGUUUUUGGGGUUUUUGGUUUUUGGGAAAGUAUUAUGUUACGCCGUUCGGAUCUGCACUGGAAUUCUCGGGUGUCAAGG,-1.3

# Further values, each from its own experiment
Substance,target,assay,test system,setting,scale,endpoint,result
"PhoQ, residues 284 288 289 292 302 303 SSTMSV","PhoP, residues 12 14 15 18 19 SFCSL (Escherichia coli, UniProt P23836)","Sort-seq, refers to: YFP reporter",E. coli,"PhoQ-PhoP variant library, together with: 10 µM Mg2+","relative to: high Mg2+ state, higher = stronger signaling",fold induction,21.2

# Repeated from above (sample 2):
Oligonucleotide,E-score
GGATTTAA,0.101
